{"data": "Measurements collected from several papers", "HLA class I histocompatibility antigen, A alpha chain allele A*01:01": "HLA class I histocompatibility antigen, A alpha chain, allele A*01:01 (Homo sapiens, UniProt P04439)", "B1": "enzyme (Bordetella petrii, UniProt A9I5G2); chain MQATYDVVIRHAEIVDGTGAARFEGDIGIDGDRISRIGDLSHARGRREIDAVGLVAAPGFIDAHTHDDRVMLSAGDMTPKVSQGVTTVIGGNCGISLAPMPQPAPATITPPLDLLDASGQWYRYARFGDYLDSLRTQPAATNCAMLVGHSTLRVITMSDLGRPANEAEIAAMRGHVAEAMESGAIGVSTGLAYAPAMAASTEEVIEICRPLAHHHGLYCTHMRDEGDDIMESLDETFRIGRELGVPVVISHHKVTGVNNFGRSQETLERIRHAMARQPVCLDCYPYPASSTILTYSHAVGSSRTIVTWSRALPQYAGRDLADIAQEMGCSLEDAVQRLLPAGAIYFRMDDADVERILQFDETMIGSDGLPHDEQPHPRLWGTFPRILGHYCRDLGLFPLEKAIHKMTGLTAERFGLADRGVVREGAYADLAIFDAGTVSDRATFAKPVAPSDGIHTVLVNGEVVWRDGRSAGARPGRVLRRAVPA", "B2": "enzyme (Manihot esculenta, UniProt Q41172); chain TDDDDDNIPDDFSRKYFPDDFIFGTATSAYQIEGEATAKGRAPSVWDIFSKETPDRILDGSNGDVAVDFYNRYIQDIKNVKKMGFNAFRMSISWSRVIPSGRRREGVNEEGIQFYNDVINEIISNGLEPFVTIFHWDTPQALQDKYGGFLSRDIVYDYLQYADLLFERFGDRVKPWMTFNEPSAYVGFAHDDGVFAPGRCSSWVNRQCLAGDSATEPYIVAHNLLLSHAAAVHQYRKYYQGTQKGKIGITLFTFWYEPLSDSKVDVQAAKTALDFMFGLWMDPMTYGRYPRTMVDLAGDKLIGFTDEESQLLRGSYDFVGLQYYTAYYAEPIPPVDPKFRRYKTDSGVNATPYDLNGNLIGPQAYSSWFYIFPKGIRHFLNYTKDTYNDPVIYVTENGVDNYNNESQPIEEALQDDFRISYYKKHMWNALGSLKNYGVKLKGYFAWSYLDNFEWNIGYTSRFGLYYVDYKNNLTRYPKKSAHWFTKFLNISVNANNIYELTSKDSRKVGKFYVM", "B3": "enzyme (Schizosaccharomyces pombe, UniProt P78804); chain MSTPYEPEFQQAYKEIVGSIESSKLFEVHPELKRVLPIISIPERVLEFRVTWEDDKGNCRVNTGYRVQFNSALGPYKGGLRFHPSVNLSILKFLGFEQIFKNALTGLPMGGGKGGSDFDPKGKSDNEIRRFSQAFMRQLFRYIGPQTDVPAGDIGVTGFVVMHMFGEYKRLRNEYSGVVTGKHMLTGGSNIRPEATGYGVVYYVKHMIEHRTKGAETLKGKRVAISGSGNVAQYAALKCIQEGAIVKSISDSKGVLIAKTAEGLVPEEIHEIMALKEKRASIADSASLCKKHHYIAGARPWTNVGEIDIALPCATQNEVSGEEAAALIKQGCRYVAEGSNMGSSAEAVEVFEKSRASGEGCWLAPGKAANAGGVAVSGLEMAQNAQFSTWTHAEVDAKLAGIMQNIFEQSTDVASKYCDSGSNNIPSLVDGANIAGFLKVATAMQAVGDWW", "B4": "enzyme (Methylibium petroleiphilum, UniProt A2SI32); chain PFAQIYLIEGRTEEQKRAVIEKVTQAMMEAVGAPKENVRVWIHDVPKENWGIGGVSAKALGR", "B5": "PYCR2 R251C (Homo sapiens, UniProt Q96C36); chain MSVGFIGAGQLAYALARGFTAAGILSAHKIIASSPEMNLPTVSALRKMGVNLTRSNKETVKHSDVLFLAVKPHIIPFILDEIGADVQARHIVVSCAAGVTISSVEKKLMAFQPAPKVIRCMTNTPVVVQEGATVYATGTHALVEDGQLLEQLMSSVGFCTEVEEDLIDAVTGLSGSGPAYAFMALDALADGGVKMGLPRRLAIQLGAQALLGAAKMLLDSEQHPCQLKDNVCSPGGATIHALHFLESGGFCSLLINAVEASCIRTRELQSMADQEKISPAALKKTLLDRVKLESPTVSTLTPSSPGKLLTRSLALGGKKD", "note": "Compare with care: the assays were run in different laboratories. ± marks the error that the study gave.", "UniProt B7I618, sequence (whole entry, looked up)": "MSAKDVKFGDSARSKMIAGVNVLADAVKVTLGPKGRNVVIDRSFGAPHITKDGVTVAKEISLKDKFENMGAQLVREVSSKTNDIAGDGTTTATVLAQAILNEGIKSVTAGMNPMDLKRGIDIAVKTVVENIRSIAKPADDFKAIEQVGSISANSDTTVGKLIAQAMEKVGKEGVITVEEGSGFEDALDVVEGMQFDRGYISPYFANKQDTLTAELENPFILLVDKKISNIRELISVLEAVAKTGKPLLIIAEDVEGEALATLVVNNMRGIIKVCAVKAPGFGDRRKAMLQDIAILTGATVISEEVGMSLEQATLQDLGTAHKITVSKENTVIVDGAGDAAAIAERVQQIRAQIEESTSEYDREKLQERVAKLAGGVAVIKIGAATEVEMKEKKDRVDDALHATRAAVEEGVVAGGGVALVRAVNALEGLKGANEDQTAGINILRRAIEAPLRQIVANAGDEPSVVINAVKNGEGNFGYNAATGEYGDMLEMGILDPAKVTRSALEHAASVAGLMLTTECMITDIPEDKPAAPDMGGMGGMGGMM", "UniProt Q86YV5, sequence (whole entry, looked up)": "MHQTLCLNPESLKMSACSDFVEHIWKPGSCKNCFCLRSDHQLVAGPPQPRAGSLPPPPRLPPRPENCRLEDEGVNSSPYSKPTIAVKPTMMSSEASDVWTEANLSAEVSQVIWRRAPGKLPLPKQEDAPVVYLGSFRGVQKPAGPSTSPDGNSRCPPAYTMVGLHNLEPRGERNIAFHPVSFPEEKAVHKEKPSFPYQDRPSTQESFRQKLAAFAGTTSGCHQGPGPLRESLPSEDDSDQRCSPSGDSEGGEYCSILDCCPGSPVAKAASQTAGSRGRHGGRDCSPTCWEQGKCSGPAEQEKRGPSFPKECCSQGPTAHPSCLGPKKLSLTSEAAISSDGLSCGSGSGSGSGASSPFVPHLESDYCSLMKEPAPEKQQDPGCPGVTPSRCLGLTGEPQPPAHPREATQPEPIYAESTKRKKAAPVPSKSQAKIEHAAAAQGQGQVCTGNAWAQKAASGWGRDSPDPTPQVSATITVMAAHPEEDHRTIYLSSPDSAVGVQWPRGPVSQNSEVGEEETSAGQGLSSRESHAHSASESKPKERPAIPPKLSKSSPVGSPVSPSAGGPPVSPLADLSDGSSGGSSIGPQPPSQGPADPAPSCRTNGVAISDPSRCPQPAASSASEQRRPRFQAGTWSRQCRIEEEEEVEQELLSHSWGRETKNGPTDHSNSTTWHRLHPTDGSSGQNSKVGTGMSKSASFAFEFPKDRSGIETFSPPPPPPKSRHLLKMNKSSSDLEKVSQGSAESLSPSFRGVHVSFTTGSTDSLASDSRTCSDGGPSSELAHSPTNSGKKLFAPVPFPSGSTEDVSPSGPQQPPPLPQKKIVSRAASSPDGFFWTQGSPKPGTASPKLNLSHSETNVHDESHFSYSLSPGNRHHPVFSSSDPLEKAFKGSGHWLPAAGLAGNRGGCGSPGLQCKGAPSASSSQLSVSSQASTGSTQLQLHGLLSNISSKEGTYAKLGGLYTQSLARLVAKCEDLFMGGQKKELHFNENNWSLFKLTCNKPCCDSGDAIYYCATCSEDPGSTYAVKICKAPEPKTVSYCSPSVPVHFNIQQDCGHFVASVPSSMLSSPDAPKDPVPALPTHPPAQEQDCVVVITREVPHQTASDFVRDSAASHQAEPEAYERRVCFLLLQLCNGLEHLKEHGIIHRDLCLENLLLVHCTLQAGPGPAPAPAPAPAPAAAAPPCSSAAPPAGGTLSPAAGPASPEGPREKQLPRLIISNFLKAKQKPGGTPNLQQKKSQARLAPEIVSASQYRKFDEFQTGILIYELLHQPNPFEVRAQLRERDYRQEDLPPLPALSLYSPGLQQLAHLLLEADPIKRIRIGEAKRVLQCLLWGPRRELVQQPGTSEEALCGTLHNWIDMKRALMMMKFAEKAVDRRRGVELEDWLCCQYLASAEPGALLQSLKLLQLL", "UniProt Q93UV0, sequence (whole entry, looked up)": "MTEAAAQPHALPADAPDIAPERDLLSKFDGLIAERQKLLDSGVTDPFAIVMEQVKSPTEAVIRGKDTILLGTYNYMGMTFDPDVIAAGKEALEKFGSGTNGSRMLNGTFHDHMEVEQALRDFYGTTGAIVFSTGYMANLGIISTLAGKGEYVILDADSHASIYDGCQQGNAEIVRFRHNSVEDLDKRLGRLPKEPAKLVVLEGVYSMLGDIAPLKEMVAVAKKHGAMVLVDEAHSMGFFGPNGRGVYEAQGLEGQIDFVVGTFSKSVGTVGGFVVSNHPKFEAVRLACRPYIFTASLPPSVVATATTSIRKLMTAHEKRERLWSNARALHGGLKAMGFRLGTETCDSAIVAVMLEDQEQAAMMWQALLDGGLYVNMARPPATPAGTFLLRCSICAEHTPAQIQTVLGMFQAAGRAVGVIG"}
{"Substance": "enzyme (Acinetobacter baumannii, UniProt B7I618)", "tested on": "Nc1ncnc2c1ncn2[C@@H]1O[C@H](COP(=O)(O)OP(=O)(O)OP(=O)(O)O)[C@@H](O)[C@H]1O", "test": "steady-state kinetics", "setting": "pH 7.4, 24 °C, apparent", "quantity": "Km", "result": "41.9 µM"}
{"Substance": "MPFGSLLDY", "tested on": "HLA class I histocompatibility antigen, A alpha chain allele A*01:01", "test": "conformational ELISA", "system": "peptide", "setting": "concentration not given", "scale": "baseline: positive control peptide, direction not given", "quantity": "binding score", "result": "1%"}
{"Substance": "gdh N192L/N97F (Bacillus subtilis)", "tested on": "NC(=O)c1ccc[n+]([C@@H]2O[C@H](COP(=O)(O)OP(=O)(O)OC[C@H]3O[C@@H](n4cnc5c(N)ncnc54)[C@H](O)[C@@H]3O)[C@@H](O)[C@H]2O)c1", "test": "steady-state kinetics", "setting": "pH 7, 50 °C", "quantity": "Km", "result": "250 µM"}
{"Substance": "spt (Sphingomonas paucimobilis, UniProt Q93UV0)", "tested on": "CCCCCCCCCCCC(=O)SCCNC(=O)CCNC(=O)[C@H](O)C(C)(C)COP(=O)(O)OP(=O)(O)OC[C@H]1O[C@@H](n2cnc3c(N)ncnc32)[C@H](O)[C@@H]1OP(=O)(O)O", "test": "steady-state kinetics", "setting": "together with: PLP", "quantity": "Km", "result": "250 µM"}
{"Substance": "B1 (enzyme)", "tested on": "CSCC[C@@H](NC(C)=O)C(=O)O", "test": "steady-state kinetics", "setting": "pH 7, 35 °C", "quantity": "Km", "result": "31800 µM"}
{"Substance": "B2 (enzyme)", "tested on": "O=[N+]([O-])c1ccc(O[C@@H]2O[C@H](CO)[C@@H](O)[C@H](O)[C@H]2O)cc1", "test": "steady-state kinetics", "setting": "pH 6, 30 °C, not purified", "quantity": "Km", "result": "8650 µM"}
{"Substance": "B3 (enzyme)", "tested on": "NC(=O)c1ccc[n+]([C@@H]2O[C@H](COP(=O)(O)OP(=O)(O)OC[C@H]3O[C@@H](n4cnc5c(N)ncnc54)[C@H](OP(=O)(O)O)[C@@H]3O)[C@@H](O)[C@H]2O)c1", "test": "steady-state kinetics", "setting": "pH 7, 30 °C, apparent", "quantity": "Km", "result": "40 µM"}
{"Substance": "GLLEWVSQV", "tested on": "Jurkat T cells expressing 1G4 TCR", "test": "NFAT-eGFP reporter, fluorescence microscopy", "system": "peptide", "setting": "concentration not given, HLA-A*02:01 NY-ESO system", "quantity": "reporter activation", "result": "0.0119%"}
{"Substance": "B4 (enzyme)", "tested on": "C/C(=C\\C=C(/O)C(=O)O)C(=O)O", "test": "steady-state kinetics", "setting": "pH 7.3, 24 °C", "quantity": "Km", "result": "105 µM"}
{"Substance": "ACATACATACAT (dsDNA)", "tested on": "Fibroin-modulator-binding protein-1 99-193 (Bombyx mori, UniProt Q5FBS0)", "test": "ITC", "system": "double-stranded DNA, one strand shown", "quantity": "Kd", "result": "615 ± 34 nM"}
{"Substance": "TSTVQLIM", "tested on": "HLA class I histocompatibility antigen, A alpha chain allele A*01:01", "test": "conformational ELISA", "system": "peptide", "setting": "concentration not given", "scale": "baseline: positive control peptide, direction not given", "quantity": "binding score", "result": "0.8%"}
{"Substance": "B5 (PYCR2 R251C)", "tested on": "O=C(O)[C@@H]1CCC=N1", "test": "steady-state kinetics", "setting": "pH 7.5, 37 °C, apparent, together with: NADH 500 µM", "quantity": "Km", "result": "1320 µM"}
{"Substance": "PRAG1 (Homo sapiens, UniProt Q86YV5)", "tested on": "Nc1ncnc2c1ncn2[C@@H]1O[C@H](COP(=O)(O)OP(=O)(O)OP(=O)(O)O)[C@@H](O)[C@H]1O", "test": "steady-state kinetics", "quantity": "Km", "result": "57 µM"}
{"note": "For quick reference, copied from above:"}
{"Substance": "B5 (PYCR2 R251C)", "tested on": "O=C(O)[C@@H]1CCC=N1", "test": "steady-state kinetics", "setting": "pH 7.5, 37 °C, apparent, together with: NADH 500 µM", "quantity": "Km", "result": "1320 µM"}
